Measurements collected from several papers.
A part holds a random share of what one study measured. Changes are numbered by the printed parent chain.

Set 1
Target: RNA binding protein fox-1 homolog 2, RRM domain, GST-SBP tag (RBFOX2, Homo sapiens, UniProt O43251-10, residues 100-194)
Method: RNA Bind-n-Seq
Molecule type: RNA
Matrix: in vitro
Concentration: 365 nM
Setting: natural RNA segment, single round, ends assumed
Reference: no-protein control
Reading: higher = stronger binding
Endpoint: RBNS enrichment (R)
All sequences stand within: GGGAGUUCUACAGUCCGACGAUC … UGGAAUUCUCGGGUGCCAA
Residues (chain): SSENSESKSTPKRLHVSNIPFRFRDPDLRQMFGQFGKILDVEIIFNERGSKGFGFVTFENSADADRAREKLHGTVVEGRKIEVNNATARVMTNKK
CUUUCUCGGGCUGCUUUUGCGUCGUUGUCCUAGGUGGCCAGAUUGUCUUGAUAAGAGCAGAUCUGGGGACUGAUCGGAUUGGCAGGAAAAGAACAGAGUGCAUCUCUUGG: 0.262
UAAUCAGGUGUGGCUAUCUGAGAAAUCAACUUUGGGGGAAAUGUAAGAUUCUGAGCUCUCUCUCUGUUUUGUUCUAGCCAUGAAUUUGCCUGAGAAACUUGUAACCUAUG: 4.94
GAUUCUGUAGCUUUAACUUGUAAACCACAUCUUUUUUGCACUUUUUUUUAUAAAGCAAAAACGUGCCGUUUAAACCACUGGAUCUAUCUAAAUGCCGAUUUGAGUUCGCG: 0.312
AAAUAGCAGUUUUCCUAACUUGAUUAGCUUGAGCUGACAGACUGUUAGAAUACAGUUCUCUGGCCACAGCUGAUGAGGGCUUUCUGUACUGCACACAGAUUGUGUACUGC: 0.304
GUGCAUUGUAUCUUUUUCAUAAUGGUACUAUUUAGAAGCCCAGUUAGUCUUACUGAGCUUAUGCUUCACUCCUUUAUGUUUAACCAUGUGUCUACAAGAAUAAGUUUGUU: 0.438
CUGUUGCCUGUGGAGUCUCUGCUGAAAUGAAUCAGGAUUCGAGCUCUAGGAUGAGACAGAAAAUGAAAGCAUGUUGUUUGCCAGGACACUGUGGGUUUAUAUUGAUGUGU: 2.83
CGAUGGAAGAAACCUACUUCCCUAUCCUGCCUAUCCUGCCCCUCAACCUCUUCAUUCCUAAUUCCUCCAAGGUACUAUUUCAUAGUUGCUCUGAAUUAAGGAUUUCAGGU: 0.297
CAGCUCCAUGAUUCCCAGUGGGGCCCAAGCCAGGCCAAGGUGCAGUCAGUUAAUAGCAUUGGGACAGUCAUUGUAAUGGUGCUGUUACCAGUCGACACCAUUGUGUUUGA: 0.246
GGGGAGAGGGUUUAAAUGAGGGUUAUGGGGCGAAAUAAAACCAAGUAUAAGUGAUUCUAUCUUGGUCCCACCAAGAGUUUGCCCGAUCUCCACACAUCACCUGUUGUCUC: 0.305
UAGAAAUUUUGUAAUGUAGAGUUUUAGAGAGAGCACUUUGAAAGAUAAACAUUUUAUUAUGAUGGUGCUAGGUACAAAAUUUAUAGCAUGGGAUGUGAAGAAAAAAAAUG: 10.8
UCUUUCCUAUAUAAUGAAUAGAUGAGUGAAAGGAGUUUUCUUUUUCUCUUUAGUACUUACGUAUUGGGAUUCCUGUGUCUUACAGCUCUCCCUCUCCAAAUAAUACACAG: 0.392
CUUAGGUUUUCUAAGGACAUUGUUUUAAUCUGUAUCGUGCCAAAGUUGUAUCACUGUUAAACUUCUGAAGACAUAACCAGUUGAGUCUUAUUUCAAGAUAUGUUCUCAAG: 0.4

Set 2
Target: CEBPB, bZIP domain (human)
Method: DHFR protein complementation
Matrix: yeast
Setting: single substitutions, most at no-binding floor
Reference: wild-type JUN-FOS pair
Reading: higher = stronger binding
Endpoint: binding fitness
Parent: JUN, bZIP domain (human); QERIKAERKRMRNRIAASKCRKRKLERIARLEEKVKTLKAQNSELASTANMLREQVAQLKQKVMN; partner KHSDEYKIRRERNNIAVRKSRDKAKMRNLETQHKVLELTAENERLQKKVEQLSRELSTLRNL
T48W: -1.5 natural log
K34D: -1.09 natural log
L45P: -1.54 natural log
S47I: -1.35 natural log
I28M: -1.16 natural log
R53D: -1.27 natural log
L52R: -1.51 natural log
N42Q: -1.4 natural log
A40K: -1.26 natural log
M51D: -1.28 natural log
L45G: -1.51 natural log
A49T: -1.35 natural log
A29S: -1.22 natural log
T37M: -0.62 natural log

Set 3
Target: RING finger protein unkempt homolog, zinc fingers 1-6, GST-SBP tag (UNK, Homo sapiens, UniProt Q9C0B0, residues 30-357)
UniProt Q9C0B0, sequence (30-357, looked up): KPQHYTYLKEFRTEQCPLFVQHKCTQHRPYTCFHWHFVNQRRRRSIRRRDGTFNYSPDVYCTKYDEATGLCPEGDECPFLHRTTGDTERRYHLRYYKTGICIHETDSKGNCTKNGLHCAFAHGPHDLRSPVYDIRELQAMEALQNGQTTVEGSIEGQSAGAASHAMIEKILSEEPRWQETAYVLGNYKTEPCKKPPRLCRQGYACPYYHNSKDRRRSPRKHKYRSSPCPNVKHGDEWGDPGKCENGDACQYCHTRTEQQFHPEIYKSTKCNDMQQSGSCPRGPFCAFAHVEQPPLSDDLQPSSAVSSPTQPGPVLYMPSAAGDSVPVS
Method: RNA Bind-n-Seq
Molecule type: RNA
Matrix: in vitro
Concentration: not given
Setting: RNA with constant flanks, ends assumed
Reference: input RNA pool
Reading: higher = stronger binding
Endpoint: bound/input enrichment
All sequences stand within: GGGAGUUCUACAGUCCGACGAUC … CAACAGAGGAUUGAGCAUCA
GUAUGCCAAGGAACUCACAUUCUCUUCCGGGAAUUCAGCUUUAUACAAGCCACACCUCAUAACCGAGCAUCAUUCCUUCGGGCCUUCUGGAGAUGCUUCCGAACUGUAGGGAAAAAUGGU: 0.366 ratio
AAUUCUGUUGAAGACAGUUGAGAAUUCCUUUGGAGAAAACAGCCCAGCUUGGCGUGGGGUCCGGUUGCUGUUUCAAAUAACUCACAGGCCCAGGUGACAUGGAAUCUUGGAGCAGCCUUG: 0.24 ratio
UUGCCCAGAUAGGGUCCCCUUCUCAUUCACAAAGUGCCCCCUCCAUGUCCCUGGACCCUCCGGAUACCCCCUGGGGCCCCCAAGUCAGAGACUGUCUGACUCAGGUUAUGCCUACAGAGU: 0.269 ratio
GGCUUUAUUCUGUGCCAUGGGAUGCUAAAUACGGAGGCUACCGCACUGAACCUUUGGAAGCCCGCUCUUCAGAGUAGCUCUUGCCUCUCUCUCUUUCGGGAUGAAGUUUUCCACAUUCAC: 0.0739 ratio
GAAUUUGCCUAUACUUCUGUACUAAGUUUUGACUUUUGUAGCAUGGCUGAUGUAGCCGUCUCCGCUCGCCACCUUUUUAUGUCAGAAGUUUUAGAAAUUUGUGAAAGUGUACAUAAACUA: 0.403 ratio
ACGCAGUUUCCCCGAUUUCCUUCUCUCAGCCUGAAGUUCUAGAUCCUUUCGGUUUCCUCCUCCGUCCCUCCAAGGUACUUAACCCCUUUUUGCAGUUUGGACUUUGAGAUUGUGAAUCUC: 0.434 ratio
GCUCACUUCGACCUUGCCUUGGCACGGUCUGCUAAACUACGAAACCCAAAAAAUGACCUCCCCGUAUUGCAUCUCUCUGACCUGAUUCGAAUGGCAUUCAUGGCUGCAACUGAUCAUAGC: 0.189 ratio
CGGAUCCAUUGCAGUAAAUCCUCAGUCAGGAGCAGGAGAAGCAGCCCUAAGAGAAAGCGUAACCGACCCUGUGCAAGUCAUCAGUCGCAUUCGGUAUGAGUGGUUUGUUUUUAUUUGGAA: 0.193 ratio
AAAUGUACAGAAUCUGAAGAAGAAGAAGUCACCAAAGGAAAGGAAAAUCAACUUCAGCUCCGCUGUUUUAUCAAUCAGGAAGUCAAGUAUCUUUUUACAGGACUUAAAUUGCGACUUCAG: 0.115 ratio
AGUUUGCUUGGGUUGGUUUUUUGUUUUUGUUUUUCCUGGAAAACAUUCAGUGAGAGAAGUAACCGAUUGAAAACAAAUGAAUUCUCAACUUCUAUGUUGACCAUGUAGAGAGUUCAGACA: 0.23 ratio
CAAGGAAUGUUUCGGCAGGGAAGCUGGCCCGAGGCUGCGGGUGGCAUCUGAAGGCACUGGCCGGUGUGGAAGAGGCCCCACAGAUGCCAGACUGCACCAAGAAUUAGUAUCUUUCACAGC: 0.697 ratio

Set 4
Target: CCNA1, cyclin fold, Cln2 fusion (human)
Method: yeast growth competition, sequencing
Matrix: yeast
Setting: weak parent motif
Reference: not given
Reading: higher = stronger binding
Endpoint: normalised enrichment score
Parent: AKAP12 docking peptide (human); GSPLKKLFTSTGL; partner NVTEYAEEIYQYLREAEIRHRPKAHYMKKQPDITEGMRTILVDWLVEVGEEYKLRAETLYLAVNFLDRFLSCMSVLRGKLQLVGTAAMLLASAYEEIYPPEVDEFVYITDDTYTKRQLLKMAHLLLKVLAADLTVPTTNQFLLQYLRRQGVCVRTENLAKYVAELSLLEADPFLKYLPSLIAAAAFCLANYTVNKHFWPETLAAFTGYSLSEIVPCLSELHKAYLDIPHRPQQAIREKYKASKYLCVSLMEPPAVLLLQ
S10A: 0.122
L4A: 0.0836
G1A: -0.00693
F8L: -0.576
T9A: 0.0827
T11A: -0.254
F8A: 0.195

Set 5
Target: ABI1, truncated, D143A, DHFR fusion (Arabidopsis thaliana)
Method: DHFR PCA, deep sequencing
Matrix: yeast
Setting: methotrexate growth selection, single substitutions
With: (+)-ABA 17 µM
Reference: wild-type fitted maximum
Reading: higher = stronger binding
Endpoint: relative binding score
Parent: PYL1, truncated, DHFR fusion (Arabidopsis thaliana); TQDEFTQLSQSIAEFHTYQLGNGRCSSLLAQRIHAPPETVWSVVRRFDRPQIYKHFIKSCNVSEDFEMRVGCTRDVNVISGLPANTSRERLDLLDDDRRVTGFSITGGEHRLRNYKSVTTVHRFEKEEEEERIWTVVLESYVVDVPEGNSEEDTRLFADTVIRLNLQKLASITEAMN
E139S: 56.3%
S26Q: 66%
L29F: 10.2%
R90H: 50.2%
E67F: 67.1%
L93N: 24.6%
V100L: 54.8%
Y18S: 52%
S150E: 38.4%
P36V: 44.8%
E129D: 96.7%
D3V: 70.7%
A158V: 104%
F66Q: 77.4%
K126T: 94.9%

Repeated from above (set 2):
K34D: -1.09 natural log
L45P: -1.54 natural log
S47I: -1.35 natural log
I28M: -1.16 natural log
R53D: -1.27 natural log
L52R: -1.51 natural log
N42Q: -1.4 natural log
A40K: -1.26 natural log
M51D: -1.28 natural log
L45G: -1.51 natural log
